Published values gathered from unrelated publications.
Parts stem from different laboratories: compare values within a part only.
UniProt O94804, sequence (whole entry, looked up): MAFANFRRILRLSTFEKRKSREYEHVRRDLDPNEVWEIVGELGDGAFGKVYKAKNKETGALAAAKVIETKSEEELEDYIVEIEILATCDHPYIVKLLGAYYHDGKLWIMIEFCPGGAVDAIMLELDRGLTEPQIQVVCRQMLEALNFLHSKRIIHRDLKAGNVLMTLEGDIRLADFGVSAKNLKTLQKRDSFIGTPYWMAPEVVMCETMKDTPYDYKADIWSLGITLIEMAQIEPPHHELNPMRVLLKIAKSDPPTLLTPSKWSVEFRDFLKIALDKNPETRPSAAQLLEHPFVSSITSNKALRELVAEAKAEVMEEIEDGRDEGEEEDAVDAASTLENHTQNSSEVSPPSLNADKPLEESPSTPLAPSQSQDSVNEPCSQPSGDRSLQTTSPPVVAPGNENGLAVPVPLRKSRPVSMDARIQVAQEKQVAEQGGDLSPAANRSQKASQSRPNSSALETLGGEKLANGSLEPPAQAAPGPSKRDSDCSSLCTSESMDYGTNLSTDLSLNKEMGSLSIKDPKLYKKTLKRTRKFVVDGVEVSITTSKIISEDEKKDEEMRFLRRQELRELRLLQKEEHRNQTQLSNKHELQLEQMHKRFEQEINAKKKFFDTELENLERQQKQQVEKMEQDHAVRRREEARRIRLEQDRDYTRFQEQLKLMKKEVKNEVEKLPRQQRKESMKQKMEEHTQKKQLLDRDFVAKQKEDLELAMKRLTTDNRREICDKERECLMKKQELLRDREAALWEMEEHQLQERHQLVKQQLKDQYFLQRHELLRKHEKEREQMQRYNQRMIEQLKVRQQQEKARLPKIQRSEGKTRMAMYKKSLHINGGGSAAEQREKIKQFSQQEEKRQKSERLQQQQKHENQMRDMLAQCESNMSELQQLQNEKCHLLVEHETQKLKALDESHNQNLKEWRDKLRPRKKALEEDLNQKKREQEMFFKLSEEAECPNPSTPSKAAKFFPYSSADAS
UniProt P36897, sequence (whole entry, looked up): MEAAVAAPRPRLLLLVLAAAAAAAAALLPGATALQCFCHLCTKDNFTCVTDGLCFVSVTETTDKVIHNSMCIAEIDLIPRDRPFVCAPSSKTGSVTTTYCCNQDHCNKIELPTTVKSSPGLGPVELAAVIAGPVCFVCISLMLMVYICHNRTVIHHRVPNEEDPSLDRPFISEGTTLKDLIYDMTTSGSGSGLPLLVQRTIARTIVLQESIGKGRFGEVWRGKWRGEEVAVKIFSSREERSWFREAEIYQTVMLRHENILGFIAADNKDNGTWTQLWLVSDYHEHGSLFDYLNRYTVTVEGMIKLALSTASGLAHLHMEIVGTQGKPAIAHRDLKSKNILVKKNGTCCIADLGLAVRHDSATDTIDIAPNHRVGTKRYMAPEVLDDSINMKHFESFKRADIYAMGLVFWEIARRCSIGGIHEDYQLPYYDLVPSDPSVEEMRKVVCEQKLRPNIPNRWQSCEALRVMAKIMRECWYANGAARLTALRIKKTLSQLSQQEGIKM
UniProt P05771, sequence (whole entry, looked up): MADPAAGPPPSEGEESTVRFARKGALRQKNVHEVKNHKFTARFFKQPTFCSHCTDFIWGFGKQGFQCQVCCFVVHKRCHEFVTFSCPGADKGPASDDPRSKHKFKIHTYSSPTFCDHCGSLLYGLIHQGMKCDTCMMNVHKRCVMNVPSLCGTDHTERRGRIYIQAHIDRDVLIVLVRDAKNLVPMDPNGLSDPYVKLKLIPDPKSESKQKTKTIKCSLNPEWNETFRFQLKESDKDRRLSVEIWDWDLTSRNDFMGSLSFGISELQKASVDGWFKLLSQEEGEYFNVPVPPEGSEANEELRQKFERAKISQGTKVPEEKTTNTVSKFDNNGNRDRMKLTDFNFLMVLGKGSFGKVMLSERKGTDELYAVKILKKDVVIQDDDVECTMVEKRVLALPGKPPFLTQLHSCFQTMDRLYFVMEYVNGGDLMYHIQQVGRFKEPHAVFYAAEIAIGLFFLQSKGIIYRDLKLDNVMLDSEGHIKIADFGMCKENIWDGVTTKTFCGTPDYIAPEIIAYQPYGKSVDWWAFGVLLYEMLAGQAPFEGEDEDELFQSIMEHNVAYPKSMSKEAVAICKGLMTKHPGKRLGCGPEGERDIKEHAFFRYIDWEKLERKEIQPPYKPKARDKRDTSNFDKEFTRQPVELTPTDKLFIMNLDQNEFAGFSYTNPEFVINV
UniProt Q9Y2I7, sequence (whole entry, looked up): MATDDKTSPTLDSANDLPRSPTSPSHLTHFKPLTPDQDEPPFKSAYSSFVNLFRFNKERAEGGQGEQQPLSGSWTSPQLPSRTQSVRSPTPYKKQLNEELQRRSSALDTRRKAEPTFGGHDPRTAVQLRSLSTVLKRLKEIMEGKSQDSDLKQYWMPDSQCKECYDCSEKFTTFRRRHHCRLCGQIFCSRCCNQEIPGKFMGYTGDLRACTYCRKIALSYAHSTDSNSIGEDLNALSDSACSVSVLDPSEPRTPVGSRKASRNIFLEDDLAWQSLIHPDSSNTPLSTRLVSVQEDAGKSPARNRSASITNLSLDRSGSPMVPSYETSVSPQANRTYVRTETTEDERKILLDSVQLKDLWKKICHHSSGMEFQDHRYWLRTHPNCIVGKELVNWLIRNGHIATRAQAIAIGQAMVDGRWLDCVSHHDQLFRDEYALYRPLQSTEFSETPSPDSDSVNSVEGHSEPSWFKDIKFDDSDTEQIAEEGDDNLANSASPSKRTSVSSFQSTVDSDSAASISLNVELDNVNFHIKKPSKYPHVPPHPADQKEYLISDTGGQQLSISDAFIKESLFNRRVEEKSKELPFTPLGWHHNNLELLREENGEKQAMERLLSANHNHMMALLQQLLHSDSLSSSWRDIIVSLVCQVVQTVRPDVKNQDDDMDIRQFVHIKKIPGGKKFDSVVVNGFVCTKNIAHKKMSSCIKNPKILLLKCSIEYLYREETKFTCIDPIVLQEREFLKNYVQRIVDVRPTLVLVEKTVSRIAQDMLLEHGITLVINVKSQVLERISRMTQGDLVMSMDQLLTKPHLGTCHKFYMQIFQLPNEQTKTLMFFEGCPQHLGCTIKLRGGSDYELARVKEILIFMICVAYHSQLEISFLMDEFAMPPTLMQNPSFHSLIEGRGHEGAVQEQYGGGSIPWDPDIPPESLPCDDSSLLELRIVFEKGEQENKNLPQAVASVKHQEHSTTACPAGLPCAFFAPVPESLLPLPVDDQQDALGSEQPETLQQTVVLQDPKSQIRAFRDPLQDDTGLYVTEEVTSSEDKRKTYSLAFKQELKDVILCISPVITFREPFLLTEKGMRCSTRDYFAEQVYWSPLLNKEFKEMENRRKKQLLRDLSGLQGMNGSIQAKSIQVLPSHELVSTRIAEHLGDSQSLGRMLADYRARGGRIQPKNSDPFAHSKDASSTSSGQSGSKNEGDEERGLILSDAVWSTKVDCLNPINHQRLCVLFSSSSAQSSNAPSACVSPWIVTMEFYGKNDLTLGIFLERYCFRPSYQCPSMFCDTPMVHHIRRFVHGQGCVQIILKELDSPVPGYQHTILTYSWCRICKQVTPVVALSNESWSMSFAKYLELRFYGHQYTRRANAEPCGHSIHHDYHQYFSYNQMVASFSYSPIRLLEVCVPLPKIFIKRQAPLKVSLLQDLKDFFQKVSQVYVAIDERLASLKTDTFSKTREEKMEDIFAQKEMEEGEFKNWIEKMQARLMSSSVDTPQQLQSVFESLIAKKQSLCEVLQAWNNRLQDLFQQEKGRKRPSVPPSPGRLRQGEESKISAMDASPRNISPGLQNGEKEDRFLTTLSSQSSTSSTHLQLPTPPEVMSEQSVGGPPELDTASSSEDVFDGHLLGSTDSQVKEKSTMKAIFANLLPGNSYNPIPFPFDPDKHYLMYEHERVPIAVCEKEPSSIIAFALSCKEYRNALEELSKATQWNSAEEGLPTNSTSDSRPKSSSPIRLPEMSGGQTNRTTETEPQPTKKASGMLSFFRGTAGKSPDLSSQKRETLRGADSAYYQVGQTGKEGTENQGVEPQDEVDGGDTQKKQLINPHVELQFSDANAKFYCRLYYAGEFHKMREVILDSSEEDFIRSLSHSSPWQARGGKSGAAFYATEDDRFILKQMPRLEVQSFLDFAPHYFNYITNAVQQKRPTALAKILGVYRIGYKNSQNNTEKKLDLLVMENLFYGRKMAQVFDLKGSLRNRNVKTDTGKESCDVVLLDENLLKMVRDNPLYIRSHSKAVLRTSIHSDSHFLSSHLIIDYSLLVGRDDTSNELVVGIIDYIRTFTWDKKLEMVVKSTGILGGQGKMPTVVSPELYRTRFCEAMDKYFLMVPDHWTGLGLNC
UniProt P35626, sequence (whole entry, looked up): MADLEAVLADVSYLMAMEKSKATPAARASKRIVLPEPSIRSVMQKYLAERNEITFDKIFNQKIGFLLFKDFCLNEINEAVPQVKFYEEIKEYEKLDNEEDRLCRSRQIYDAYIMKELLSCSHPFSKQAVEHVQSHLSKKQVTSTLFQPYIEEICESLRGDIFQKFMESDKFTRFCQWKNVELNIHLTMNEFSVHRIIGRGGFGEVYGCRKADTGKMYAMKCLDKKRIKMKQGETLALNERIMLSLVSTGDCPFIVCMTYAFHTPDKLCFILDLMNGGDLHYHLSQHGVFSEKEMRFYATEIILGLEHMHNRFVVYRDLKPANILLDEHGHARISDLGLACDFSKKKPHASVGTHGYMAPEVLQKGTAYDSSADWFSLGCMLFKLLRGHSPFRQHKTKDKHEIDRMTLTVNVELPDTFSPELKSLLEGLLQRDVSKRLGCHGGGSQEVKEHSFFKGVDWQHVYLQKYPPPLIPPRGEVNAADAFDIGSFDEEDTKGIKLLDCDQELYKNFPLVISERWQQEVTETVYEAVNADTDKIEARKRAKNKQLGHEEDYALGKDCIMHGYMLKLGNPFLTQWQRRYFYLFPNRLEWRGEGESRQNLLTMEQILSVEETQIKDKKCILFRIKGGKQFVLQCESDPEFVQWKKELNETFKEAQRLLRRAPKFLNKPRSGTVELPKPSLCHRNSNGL

Set 1
Structure (SMILES): CC1=C(C#N)[C@@H](c2ccc3[nH]nc(C)c3c2)C(C#N)=C(c2ccc(Cl)cc2)N1
Read-out: cell-free assay
Technique: competition with immobilised ligand
Tested at: 1 µM
target | remaining binding [%]
Tyrosine-protein kinase SYK (SYK, Homo sapiens, UniProt P43405) | 100
Macrophage colony-stimulating factor 1 receptor (CSF1R, Homo sapiens, UniProt P07333) | 100
Cyclin-dependent kinase 7 (CDK7, Homo sapiens, UniProt P50613) | 100
Ankyrin repeat and protein kinase domain-containing protein 1 (ANKK1, Homo sapiens, UniProt Q8NFD2) | 100
Receptor-type tyrosine-protein kinase FLT3 (FLT3, Homo sapiens, UniProt P36888, R834Q) | 100
Serine/threonine-protein kinase B-raf (BRAF, Homo sapiens, UniProt P15056) | 100

Set 2
Structure (SMILES): COc1ccc2[nH]c3c4[nH]c5ccc(OC)cc5c4c4c(c3c2c1)C(=O)NC4=O
Read-out: binding
Tested at: 1 µM
target | assay | remaining binding
Casein kinase I isoform epsilon (CSNK1E, Homo sapiens, UniProt P49674) | competition with immobilised ligand | 52%
Homeodomain-interacting protein kinase 1 (HIPK1, Homo sapiens, UniProt Q86Z02) | competition with immobilised ligand | 56%
Serine/threonine-protein kinase 36 (STK36, Homo sapiens, UniProt Q9NRP7) | competition with immobilised ligand | 70%
Receptor-type tyrosine-protein kinase FLT3 (FLT3, Homo sapiens, UniProt P36888) | competition with immobilised ligand | 28%
Receptor tyrosine-protein kinase erbB-3 (ERBB3, Homo sapiens, UniProt P21860) | competition with immobilised ligand | 85%
1-phosphatidylinositol 3-phosphate 5-kinase (PIKFYVE, Homo sapiens, UniProt Q9Y2I7) | – | 0%
Death-associated protein kinase 2 (DAPK2, Homo sapiens, UniProt Q9UIK4) | – | 4.9%

Set 3
Target: Diamine acetyltransferase 1 (Homo sapiens, UniProt P21673)
Action: inhibitor
Tested at: 10 µM
Relative to: control
Target sequence (P21673 1-171): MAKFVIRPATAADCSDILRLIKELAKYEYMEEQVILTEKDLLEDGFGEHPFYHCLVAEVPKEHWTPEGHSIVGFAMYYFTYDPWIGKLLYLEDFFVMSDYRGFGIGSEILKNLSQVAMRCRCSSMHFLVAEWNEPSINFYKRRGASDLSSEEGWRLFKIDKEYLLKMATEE
SMILES | remaining activity [%]
OC[C@H]1O[C@@H](Oc2c(O)cc(O)cc2/C=C\c2ccc(O)cc2)[C@H](O)[C@@H](O)[C@@H]1O | 111
O=C1C[C@@H](c2ccc(O)c(O)c2)Oc2cc(O)cc(O)c21 | 91.3
CC(C)=CCC/C(C)=C/CC/C(C)=C/CO | 94.5
CC(=O)OCC1=C[C@@H]2OC(=O)C3=CO[C@@H](O[C@@H]4O[C@H](CO)[C@@H](O)[C@H](O)[C@H]4O)[C@H]1[C@@H]32 | 85.1
CC(C)=CCC/C(C)=C/CC/C(C)=C/CC/C(C)=C/CC/C(C)=C/CC/C(C)=C/CC/C(C)=C/CC/C(C)=C/CC/C(C)=C/CO | 98.5
CC1=CC=C(C(C)C)CC1 | 96.5
COC(=O)C1=COC2OC3CC1C2C(C)O3 (stereo not drawn) | 100

Set 4
Compound: CCCCc1c(-c2ccc(OC)cc2)[nH]c2nccnc12
Read-out: enzyme activity
Action: inhibitor
Tested at: 0.5 µM
Relative to: control
target | remaining activity [%]
cGMP-dependent protein kinase 1, isoform beta (PRKG1, Homo sapiens, UniProt Q13976) | 102
Cyclin-dependent kinase 4, with cyclin D1 (CDK4, Homo sapiens, UniProt P11802) | 60.4
Serine/threonine-protein kinase STK11 (STK11, Homo sapiens, UniProt Q15831) | 74.5
Protein kinase C beta type, isoform beta-I (PRKCB, Homo sapiens, UniProt P05771) | 99.4
TGF-beta receptor type-2 (TGFBR2, Homo sapiens, UniProt P37173) | 74.8
Tyrosine-protein kinase Lyn, isoform B (LYN, Homo sapiens, UniProt P07948) | 108
Calcium/calmodulin-dependent protein kinase type II subunit delta (CAMK2D, Homo sapiens, UniProt Q13557) | 93.3
Mitogen-activated protein kinase kinase kinase 3 (MAP3K3, Homo sapiens, UniProt Q99759) | 99.8
Cyclin-dependent kinase 5, with p25 (CDK5, Homo sapiens, UniProt Q00535) | 41.3
G protein-coupled receptor kinase 3 (GRK3, Homo sapiens, UniProt P35626) | 95.6
Serine/threonine-protein kinase OSR1 (OXSR1, Homo sapiens, UniProt O95747) | 102
Serine/threonine-protein kinase 10 (STK10, Homo sapiens, UniProt O94804) | 95.4
STE20/SPS1-related proline-alanine-rich protein kinase (STK39, Homo sapiens, UniProt Q9UEW8) | 77.8
Protein kinase C alpha type (PRKCA, Homo sapiens, UniProt P17252) | 92.7
TGF-beta receptor type-1 (TGFBR1, Homo sapiens, UniProt P36897) | 95
Serine/threonine-protein kinase Nek2 (NEK2, Homo sapiens, UniProt P51955) | 115
Mitogen-activated protein kinase 9 (MAPK9, Homo sapiens, UniProt P45984) | 84.8
Calcium/calmodulin-dependent protein kinase kinase 2 (CAMKK2, Homo sapiens, UniProt Q96RR4) | 79.2
Inhibitor of nuclear factor kappa-B kinase subunit epsilon (IKBKE, Homo sapiens, UniProt Q14164) | 100
Inhibitor of nuclear factor kappa-B kinase subunit beta (IKBKB, Homo sapiens, UniProt O14920) | 102
Death-associated protein kinase 1 (DAPK1, Homo sapiens, UniProt P53355) | 90.6
Serine/threonine-protein kinase Chk2 (CHEK2, Homo sapiens, UniProt O96017) | 72.8
cAMP-dependent protein kinase catalytic subunit alpha (PRKACA, Homo sapiens, UniProt P17612) | 96.6

Set 5
Compound: CCN(c1nc(N)c(C(=O)N=C(N)N)nc1Cl)C(C)C
Read-out: β-arrestin recruitment
Action: agonist
Technique: PRESTO-Tango
Tested at: 10 µM
Relative to: untreated
target | fold over basal
C-X-C chemokine receptor type 5 (CXCR5, Homo sapiens, UniProt P32302) | 1.06
Vasopressin V2 receptor (AVPR2, Homo sapiens, UniProt P30518) | 1.25
Alpha-1D adrenergic receptor (ADRA1D, Homo sapiens, UniProt P25100) | 1.09
Beta-2 adrenergic receptor (ADRB2, Homo sapiens, UniProt P07550) | 0.79
G-protein coupled receptor family C group 6 member A (GPRC6A, Homo sapiens, UniProt Q5T6X5) | 0.91 fold

For quick reference, copied from above (set 4):
target | remaining activity [%]
Calcium/calmodulin-dependent protein kinase kinase 2 (CAMKK2, Homo sapiens, UniProt Q96RR4) | 79.2
Inhibitor of nuclear factor kappa-B kinase subunit epsilon (IKBKE, Homo sapiens, UniProt Q14164) | 100
Inhibitor of nuclear factor kappa-B kinase subunit beta (IKBKB, Homo sapiens, UniProt O14920) | 102
